{"data": "Measurements gathered from unrelated publications", "note": "Each numbered part is a random draw from the data of one study; scales do not carry over between parts. Changes are numbered by the printed parent chain.", "chain of UniProt Q9BY78 (whole entry, looked up)": "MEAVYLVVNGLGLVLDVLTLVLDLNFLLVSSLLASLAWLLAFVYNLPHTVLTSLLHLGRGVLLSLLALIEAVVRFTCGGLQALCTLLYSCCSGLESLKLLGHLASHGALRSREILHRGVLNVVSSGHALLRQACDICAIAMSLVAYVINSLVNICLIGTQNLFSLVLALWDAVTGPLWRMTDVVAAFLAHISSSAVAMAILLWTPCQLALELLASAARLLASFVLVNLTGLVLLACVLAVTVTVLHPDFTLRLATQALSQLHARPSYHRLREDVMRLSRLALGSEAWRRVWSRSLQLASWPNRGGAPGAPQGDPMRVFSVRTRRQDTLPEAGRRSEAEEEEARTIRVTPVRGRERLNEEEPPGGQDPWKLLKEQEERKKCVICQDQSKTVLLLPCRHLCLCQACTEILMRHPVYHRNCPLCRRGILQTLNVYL", "chain of UniProt Q9UNE7 (whole entry, looked up)": "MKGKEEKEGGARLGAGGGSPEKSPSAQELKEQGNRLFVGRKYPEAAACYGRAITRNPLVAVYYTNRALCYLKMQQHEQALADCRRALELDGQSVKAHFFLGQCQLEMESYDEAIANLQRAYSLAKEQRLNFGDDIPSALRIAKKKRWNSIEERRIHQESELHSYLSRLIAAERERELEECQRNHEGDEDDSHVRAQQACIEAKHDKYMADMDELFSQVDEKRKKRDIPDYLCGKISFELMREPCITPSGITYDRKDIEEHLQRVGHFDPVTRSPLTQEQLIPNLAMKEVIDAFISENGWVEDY", "chain of UniProt O43567 (whole entry, looked up)": "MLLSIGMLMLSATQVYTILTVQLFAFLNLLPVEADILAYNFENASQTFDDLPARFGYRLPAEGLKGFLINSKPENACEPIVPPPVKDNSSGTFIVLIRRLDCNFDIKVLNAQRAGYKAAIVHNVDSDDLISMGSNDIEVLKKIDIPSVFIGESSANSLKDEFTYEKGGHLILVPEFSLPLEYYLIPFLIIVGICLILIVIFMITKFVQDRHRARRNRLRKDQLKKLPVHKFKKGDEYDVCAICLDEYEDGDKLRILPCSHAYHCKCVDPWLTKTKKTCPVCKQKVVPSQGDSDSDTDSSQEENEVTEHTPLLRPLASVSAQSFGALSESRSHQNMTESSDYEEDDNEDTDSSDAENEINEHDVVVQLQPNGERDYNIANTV"}
{"data": "Set 1", "target": "UBE2D4 UBC core domain (UniProt Q9Y2X8)", "technique": "yeast two-hybrid", "matrix": "yeast", "notes": "mostly zero background", "relative to": "not given", "direction": "higher = stronger interaction", "chain of UniProt Q9Y2X8 (whole entry, looked up)": "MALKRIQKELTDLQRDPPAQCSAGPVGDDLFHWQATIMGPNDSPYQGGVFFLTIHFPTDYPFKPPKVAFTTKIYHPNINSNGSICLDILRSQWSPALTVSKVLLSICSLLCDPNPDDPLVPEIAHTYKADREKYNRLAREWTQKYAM"}
{"Substance": "RNF167 RING domain (UniProt Q9H6Y7)", "lacZ reporter activity": 16200}
{"Substance": "RNF26 RING domain (UniProt Q9BY78)", "lacZ reporter activity": 0}
{"Substance": "RNF13 RING domain (UniProt O43567)", "lacZ reporter activity": 12000}
{"Substance": "STUB1 RING domain (UniProt Q9UNE7)", "lacZ reporter activity": 0}
{"data": "Set 2", "target": "HLA class I histocompatibility antigen, A alpha chain, allele A*25:01 (Homo sapiens, UniProt P04439)", "observed": "peptide-MHC binding", "molecule type": "peptide", "tested at": "concentration not given"}
{"Molecule": "YSSHELWHF", "binding": "inactive"}
{"Molecule": "PPPPLQHPI", "binding": "inactive"}
{"Molecule": "TMGPHPAGV", "binding": "inactive"}
{"Molecule": "TQIPRQMVL", "binding": "inactive"}
{"Molecule": "VWKQLFPEL", "binding": "inactive"}
{"Molecule": "FDLFGITLY", "binding": "inactive"}
{"Molecule": "LPWFLDTTI", "binding": "inactive"}
{"Molecule": "RGRKPIFRK", "binding": "inactive"}
{"data": "Set 3", "target": "CCND1, cyclin fold, Cln2 fusion (human)", "technique": "yeast growth competition, sequencing", "matrix": "yeast", "notes": "strong parent motif", "relative to": "not given", "direction": "higher = stronger binding", "starting sequence": "viral docking peptide; YKVKRRLVFGADD; partner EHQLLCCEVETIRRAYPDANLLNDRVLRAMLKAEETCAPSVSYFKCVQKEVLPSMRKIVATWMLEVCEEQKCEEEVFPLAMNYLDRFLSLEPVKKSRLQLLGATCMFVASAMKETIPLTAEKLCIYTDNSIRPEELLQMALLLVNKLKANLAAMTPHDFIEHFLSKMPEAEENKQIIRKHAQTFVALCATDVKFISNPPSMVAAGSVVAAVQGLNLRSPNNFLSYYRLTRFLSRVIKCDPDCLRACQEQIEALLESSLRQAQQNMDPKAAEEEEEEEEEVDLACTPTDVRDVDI"}
{"Substitution": "K2Y", "normalised enrichment score": 0.982}
{"Substitution": "A11S", "normalised enrichment score": 2.55}
{"Substitution": "K2Q", "normalised enrichment score": 2.49}
{"Substitution": "K4W", "normalised enrichment score": 0.663}
{"Substitution": "L7M", "normalised enrichment score": -0.088}
{"Substitution": "K2A", "normalised enrichment score": 1.6}
{"Substitution": "V8N", "normalised enrichment score": 2.17}
{"Substitution": "K2E", "normalised enrichment score": 2.14}
{"data": "Further values, each from its own experiment"}
{"Substance": "CCCCOc1ccc(C(=O)CCN2CCCCC2)cc1", "target or system": "HEK-293T/ACE2", "setting": "10 µM, 16 h", "scale": "relative to: vehicle", "quantity": "viability", "result": "100%"}
{"Substance": "SND1 (Homo sapiens, UniProt Q7KZF4)", "target or system": "LRRC59 (Homo sapiens, UniProt Q96AG4)", "test": "cross-linking MS", "setting": "hits only", "quantity": "interaction screen", "result": "cross-linked"}
{"note": "Excerpt of the above (set 3):"}
{"Substitution": "K2Y", "normalised enrichment score": 0.982}
